Results pooled from the literature.
Every numbered part comes from another study and shows a few of its results, in no order.

Series 1 — method: RNA Bind-n-Seq; molecule type: RNA; medium: in vitro; concentration: 1 µM; notes: whole 134-nt RNA, ends assumed; added: 150 mM KCl; reference: input library; direction: higher = stronger binding
Target: Ras GTPase-activating protein-binding protein 1, RRM domain (G3BP1, Homo sapiens, UniProt Q13283)
Sequence of UniProt Q13283 (whole entry, looked up): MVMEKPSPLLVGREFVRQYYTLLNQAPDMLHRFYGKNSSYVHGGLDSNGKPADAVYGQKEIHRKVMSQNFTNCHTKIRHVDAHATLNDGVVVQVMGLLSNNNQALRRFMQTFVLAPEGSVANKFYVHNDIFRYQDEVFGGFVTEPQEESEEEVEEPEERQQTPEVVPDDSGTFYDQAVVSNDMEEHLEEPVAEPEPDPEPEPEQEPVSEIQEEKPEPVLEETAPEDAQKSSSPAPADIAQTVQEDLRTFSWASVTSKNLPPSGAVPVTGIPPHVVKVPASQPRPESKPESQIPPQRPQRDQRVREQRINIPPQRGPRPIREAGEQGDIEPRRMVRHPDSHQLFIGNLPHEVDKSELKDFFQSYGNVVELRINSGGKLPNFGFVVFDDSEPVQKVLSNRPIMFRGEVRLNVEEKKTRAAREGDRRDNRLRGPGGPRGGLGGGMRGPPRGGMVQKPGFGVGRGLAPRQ
All sequences stand within: GGGAGUUCUACAGUCCGACGAUC … UGGAAUUCUCGGGUGUCAAGG
Oligonucleotide | log2 enrichment
GCAGGAAGUAAGAACAAAUGGAAAUGCUUCGGAUAGUGGCAGGGGUGGGGGUUGCUAAGGAAAGGGUGGGAUGGGAGUGGGUAAAGAGUU | 0.835
UAACUUUAGAGGAGGAUCUGAUGGAUAUGGCAGUGGACGUGGAUUGGGGGAUGGCUAUAAUGGGUAUGGAGGAGGACCUGGAGGUGGCAA | -0.478
UCAAGUCCUGUGCUACACAUCGUAUGUACCGAAUCGGGGCCCGGCCCGGCCCGGGAAAGUAUUAUGUUACGCCGUUCGGAUCUGCACUUC | -0.998
UGGGAGGUGGAUUUUGUUUAUUUUUUUAGCUCAUUUCCAGGGGUGGGAAUUCUUUUUUAAUAUGUGUCAUGAAUAAAGUUGUUUUUGAAA | 2.32
CACAGACAACACGCACCCACAAAAACACAGAGGGAAGGGGUUGGGAUGGGGACAGGGUGCACAGCAGGGCGGGGUAGGACCCCAGCCCCU | -0.234
UGGCCCUGGUGGCAUGCGUGGAGGAAGAGGUGGCCUCAUGGAUCGUGGUGGUCCCGGUGGAAUGUUCAGAGGUGGCCGUGGUGGAGACAG | 0.735
UCAAGUCCUGUGCUACACAUCGUAUGUACCGAAUCGGGCCGGCCGGGGCCGGGGAAAGUAUUAUGUUACGCCGUUCGGAUCUGCACUUCC | -0.653
GCAGGAAGUAAAAACAAAAAGAAAUGCUUCGGAUAGUGGCAGGGGUGGGGGUUGCUAAGGAAAGGGUGGGAUGGGAGUGGGUAAAGAGUU | 1.48
CAAGUCCUGUGCUACACAUCGUAUGUACCGAAUCGGGGAAGGGGAAGGGAAGGGGAAAGUAUUAUGUUACGCCGUUCGGAUCUGCACUUC | 1.09
CACAGACAACACGCACCCACACAGACACAGAGGGAAGGGAAAGGGAUGGGGACAGGGUGCACAGCAGGGCGGGGUAGGACCCCAGCCCCU | -0.124
UGGCCCUGGUGGCAUGCGGGGAGGAAGAGGUGGCCUCAUGUAUCGUGGUGGUCCCGGUGGAAUGUUCAGAGGUGGCCGUGGUGGAGACAG | 0.306
UAACUUUAGAGGAGGAUCUGAUGGAUAUGGCAGUGGACGUGGAUUUGGGGAUGGCUAUAGUGGGUAUGGAGGAGGACCUGGAGGUGGCAA | -0.451
CAAGUCCUGUGCUACACAUCGUAUGUACCGAAUCGGGGAAAGGGGAGGGGAGGGGAAAGUAUUAUGUUACGCCGUUCGGAUCUGCACUUC | 1.18
UUAAUAGAUUGAACUUCAAAAAAAAAUUCUUUCUUAAUUUCUGGAUUAAAAAGUAUGCCUGUGUCUUCUAGACCUUUACCAGAAGAUGAU | -0.246

Series 2 — method: universal PBM; molecule type: double-stranded DNA, one strand shown; medium: in vitro; concentration: 600 nM; direction: higher = stronger binding
Target: Sal-like protein 4, full length isoform A (SALL4, Homo sapiens, UniProt Q9UJQ4, residues 1-1053)
Sequence of UniProt Q9UJQ4 (whole entry, looked up): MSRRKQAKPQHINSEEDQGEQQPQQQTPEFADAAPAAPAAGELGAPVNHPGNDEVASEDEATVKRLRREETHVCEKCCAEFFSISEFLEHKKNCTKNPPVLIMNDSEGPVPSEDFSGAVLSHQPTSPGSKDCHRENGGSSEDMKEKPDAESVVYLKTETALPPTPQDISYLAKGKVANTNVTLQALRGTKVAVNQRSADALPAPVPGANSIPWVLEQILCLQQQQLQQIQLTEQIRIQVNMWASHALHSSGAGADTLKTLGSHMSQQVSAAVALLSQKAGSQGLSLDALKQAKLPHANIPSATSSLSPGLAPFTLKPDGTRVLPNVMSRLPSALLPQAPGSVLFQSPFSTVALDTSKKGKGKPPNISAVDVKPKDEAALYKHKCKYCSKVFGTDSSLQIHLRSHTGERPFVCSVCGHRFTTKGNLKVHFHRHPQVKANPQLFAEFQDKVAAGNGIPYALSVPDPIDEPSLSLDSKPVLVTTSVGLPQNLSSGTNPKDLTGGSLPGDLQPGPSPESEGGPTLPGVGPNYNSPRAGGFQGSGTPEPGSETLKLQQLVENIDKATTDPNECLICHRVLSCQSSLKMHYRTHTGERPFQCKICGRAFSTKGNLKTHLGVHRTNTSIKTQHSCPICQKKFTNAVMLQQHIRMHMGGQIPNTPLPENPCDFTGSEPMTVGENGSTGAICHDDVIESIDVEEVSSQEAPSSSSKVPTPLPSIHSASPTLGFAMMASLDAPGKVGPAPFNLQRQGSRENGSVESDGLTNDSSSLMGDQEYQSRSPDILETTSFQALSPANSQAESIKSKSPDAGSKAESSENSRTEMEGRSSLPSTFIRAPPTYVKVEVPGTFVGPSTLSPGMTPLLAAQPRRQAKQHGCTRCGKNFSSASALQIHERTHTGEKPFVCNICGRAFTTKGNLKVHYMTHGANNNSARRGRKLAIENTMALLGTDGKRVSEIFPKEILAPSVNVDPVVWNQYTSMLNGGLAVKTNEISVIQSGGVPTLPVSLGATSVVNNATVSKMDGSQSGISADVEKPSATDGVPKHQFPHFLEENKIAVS
Notes: 8-mer, flanks averaged, mean of replicates
Oligonucleotide | E-score
AAGAAGAA | 0.134
ACATTCTC | 0.124
AGTCGCAA | 0.0417
AATGGGTG | -0.0307
ATCTTGAC | 0.00142
ATGCACAC | 0.0155
CACCCAAG | -0.172
AGACACTG | -0.135
CCATTATC | 0.15
AGCCAGGA | -0.182
CCAATTTC | 0.135
AAGCCGCA | -0.1
CTGTTTAA | 0.0792
CTAACATA | 0.245
GTGCGAAC | -0.237
CCCATCAC | -0.181
CCCAGACA | -0.209
CGCGGAAG | -0.165
ACAAGCGT | -0.116
ATAGGTGG | 0.127
ACAACAGA | 0.0648
AACGCCGC | -0.327
CGCGGATC | -0.35
AAAGTGAG | 0.118
CTAACGAA | 0.138

Series 3 — method: protein binding microarray; molecule type: double-stranded DNA, one strand shown; medium: in vitro; concentration: not given; reference: not given; direction: higher = stronger binding
Target: Histone acetyltransferase KAT6A, both winged helices, GST fusion (KAT6A, Homo sapiens, UniProt Q92794, residues 1-181)
Notes: 8-mer, flanks averaged, mean of 2 arrays, mostly near background
Target sequence (chain): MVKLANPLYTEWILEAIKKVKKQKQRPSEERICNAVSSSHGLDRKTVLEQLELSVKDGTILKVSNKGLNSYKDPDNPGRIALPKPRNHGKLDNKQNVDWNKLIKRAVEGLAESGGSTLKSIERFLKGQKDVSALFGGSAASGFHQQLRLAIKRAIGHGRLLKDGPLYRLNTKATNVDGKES
Oligonucleotide | E-score
AGAGGTCA | -0.049
GAACATGC | 0.0442
ACCTTCAA | -0.177
AATATCCC | 0.0116
ATAATCTA | 0.0411
CACTAATC | -0.0814
CGCCTATC | 0.0319
CTGACTTC | -0.0256
AAGATGCG | -0.0217
AGCGCCTA | 0.0968
CCGCTTCA | 0.131
AACGAACA | 0.16
AGTGTTGA | 0.0381
CAAGGCGC | 0.291
ACCCACTA | -0.139
TGTTACAA | -0.0554
GTTCGTTA | -0.0278
AGTAGGGG | -0.172
CAGAGAGA | -0.135

Series 4 — method: RNA Bind-n-Seq; molecule type: RNA; medium: in vitro; concentration: 365 nM; reference: no-protein control; direction: higher = stronger binding
Target: RNA binding protein fox-1 homolog 2, RRM domain, GST-SBP tag (RBFOX2, Homo sapiens, UniProt O43251-10, residues 100-194)
Notes: natural RNA segment, single round, ends assumed
All sequences stand within: GGGAGUUCUACAGUCCGACGAUC … UGGAAUUCUCGGGUGCCAA
Target sequence (chain): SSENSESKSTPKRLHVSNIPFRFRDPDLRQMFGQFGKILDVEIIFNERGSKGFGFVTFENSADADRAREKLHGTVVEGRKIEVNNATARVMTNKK
Oligonucleotide | RBNS enrichment (R)
UAUUAAAGUAUAGAUGUAUGUCUUAAAAUGUGGGUGAUAGGAAUUUUAAAGAUUUAUAUAAUGCAUCAAAAGCCUUAGAAUAAGAAAAGCUUUUUUUAAAUUGCUUUAUC | 1.52
ACUGGUCAGCGGGCAGCACGUCAAGGUCACUUAAGCCCACUUUUAACUGCAGGUCAUCCUCGCAUCAGCCAAGGCUGUGGUGCUGUUGAUGCCGCAGUUGGACAGCAUAG | 0.806
AGAUCCAAAUUUCCAUUGUCUUGCAAGCAAAGCACGUAUUAAAUAUGAUCUGCAGCCAUUAAAAAGACACAUUCUGUAAAUGAGAGAGCCUUAUUUUCCUGUAACCUUCA | 1.27
GGUGGGAAAUGGUCUCCUUCCUCAGCGUUGUGUUUGGGUUACUGGUGAGGCCAGCUCACAGAGUGACAUCAUGGUCACCAGUACAUGUCGCUGGAGUAAAAUCUUGCCUU | 0.507
CAGGCUGGAUCCGAGUGUCCCCUCUGCAGCAGACGGGGACGCCAGGAUGCGGCUUGGGACUCAGACCUCAUCAUAUUGAUGAGUAGAAAGAACGUUCCCCCGCCCUCCUC | 0.219
CAGGUCUGCAGGUCGGUUUGCUGCCUGCCCUCCUCCUCUCACCCGAUGUCCAGGUGGGAUUUUAAAGUCUGCAUUGGUUAUAAUAACAGUUAUCAGUAAUUCCUGCCCAG | 0.714
ACUCUGUAAAAUUCACAGCAGUAAAUAUUGUUUUGUUGAAUGUAUUAACAUCUUAUGGUCUGAAAAUGUGGGUUUUUAUUUGACACGUUUAAAUAAAAUGUUUCUAACUA | 0.6
CAGCGUGUGAUACAGAUACCACUGCUUUCAGGCUCUUGUCCUUUAAGUCCUGAUCAGCUGUCAGAUUGUUCUGAGAGUCUCAUCGCUGUCCUCGAGUGUCCAGUCUCAGG | 0.31
UACCUGUGCAACCACCAGAUUCCAUUUCUACUUCUCUUCCCCAGAGGUCUCAGCAAUGAAUCGGGAAGACACGAAAGGUCUAAGACUAAAUAUCCAAAUUAUAAAUACUA | 0.314
GUUCACCAGGUGCCUGUCAUCACCCCACUUGACUGACAUCUACCCUGGUGACUAUGGGUUCCUCUUGUUUGUAGGGAACGGUGGCUCCAGGUGGAGGCAUCAAUCUGUUG | 0.491
UACUGGGGCACUGUUACCUCCAGAAGGCACUACUUCUAUCGUAGGGCGAGUCUAAUUGUUAGACAUUUCUUACUUAUAGUGAUUGGAUUCUGCUUUCCUAUGACUUCUGC | 0.271
UGUGCCAAAAAUGUGUUUUCAAAGAAAAUCUUAUUUUCAUACUCAAGACUUUGUACCGUCACUCAUUUGUAUAAGUGCGCUUCGUCACUGCACGGGCCCUGCUCCUGCAA | 0.285

Series 5 — method: protein-binding microarray; molecule type: double-stranded DNA, one strand shown; medium: in vitro; concentration: 250 nM; notes: 60-bp whole probe; added: salmon DNA 0.4 mg/ml; reference: random background probes; direction: higher = stronger binding; all sequences stand within: GCCTAGCAC … GTCTTGATTCGCTTGACGCTGCTG
Target: Interferon regulatory factor 5, full length, phosphomimetic (IRF5, Homo sapiens, UniProt Q13568-2, residues 1-514, K96S/S451D/S453D/S456D/S462D)
Oligonucleotide | log fluorescence [z-score]
CCCTTTTAAGTTCTCTGAAGGTGCTAG | 0.115
GACGGTATCGGGTTTCAGGACGTGCTA | 3
TCTACTTCTGTTTTTGCTTTGTGCTAG | 1.5
GACGATATCACTTTCGAGACGTGCTAG | 7.81
TTTCTAATGTTTTTTAAAGTGTGCTAG | 3.5
GACGGTTTCGGTATTGGGACGTGCTAG | 9.14
TTAGATTACAGTCTCGATTAGTGCTAG | 0.94
TGTCTTTTCATTTTCTTTAAGTGCTAG | 2.68
TCAGGTTTCCAAATTGTACTGTGCTAG | 0.529
TTAGGACTAGGTATCGGTTAGTGCTAG | 4.53
GACGATTCCAGTTTCGAGATGTGCTAG | 6.14
TCAAATCCCCTTCTACTACTGTGCTAG | 0.271
TAGTCTCTTCTGCAGCCTTTGTGCTAG | 0.0587
TTAGATTTCGGGACTTGATTAGTGCTA | 2.32
GACGGACTGGGTATCAGGACGTGCTAG | -0.231
GACGGTCTCTTTATCCTGACGTGCTAG | 0.0588
GTCACATTGTGCAATCTTAATGTGCTA | 0.135
TTAGGTTTCGTGTATCGGTTAGTGCTA | 6.89
TCAATATTCTGCTTTGCACTGTGCTAG | 0.319
GGTTTTTACTTTCTGAATGCGTGCTAG | 4.15
AACGGTCTCCTTATCCTGACGTGCTAG | -0.153
TCAATTCTCACTGCAGCACTGTGCTAG | 0.49
TTAGATATCGGGCTTCGATTAGTGCTA | 1.33
GACGGACTGGGTGTCGGGACGTGCTAG | -0.72
ACGAGTTTCTATTTTCTGAAGTGCTAG | 4.62
